# Measurements collected from several papers.
# Each numbered part is a random draw from the data of one study; scales do not carry over between parts.

# Series 1 — method: RNA Bind-n-Seq; form: RNA; medium: in vitro; tested at: 365 nM; relative to: no-protein control; reading: higher = stronger binding
# Target: RNA binding protein fox-1 homolog 2, RRM domain, GST-SBP tag (RBFOX2, Homo sapiens, UniProt O43251-10, residues 100-194)
# Notes: natural RNA segment, single round, ends assumed
# Target sequence (chain): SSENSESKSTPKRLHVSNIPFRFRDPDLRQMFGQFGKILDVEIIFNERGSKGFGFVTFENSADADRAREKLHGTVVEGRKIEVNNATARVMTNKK
Strand,RBNS enrichment (R)
GGGAGUUCUACAGUCCGACGAUCCACAUGCCAUUUCCCCAGCCUCAUUUGCUGGUGUCUGUAGGGUCCUCCCAAGGUGAGCUGAGGGCUGCAGGUGCUAGCCAGGAACAUGGGAGCUUGACUGUGGCUUCAGGUGGAAUUCUCGGGUGCCAA,0.672
GGGAGUUCUACAGUCCGACGAUCUUUUUUUUUUCUUUUUGUCCAGACUUAAAUUGUUUUGUCUUCAGAGUUUUGGAGGACCCCGGUCCCCACAAUGCCAGGCUGCAGGAUAACUGCCAUCCCCUUCUGUGAGUUGGAAUUCUCGGGUGCCAA,0.462
GGGAGUUCUACAGUCCGACGAUCGUAACUGGAGACCAGUGGAAAUGAGUAUCAUAGAUGGUCAGGCUGCAGAUGGAUCCCAGAACCUGCAGCUACCACGGACACCAGGAGGCCCUCGGGCCACUUGGUGGAAGUGGAAUUCUCGGGUGCCAA,0.162

# Series 2 — method: universal PBM; form: double-stranded DNA, one strand shown; medium: in vitro; tested at: 600 nM; reading: higher = stronger binding
# Target: Sal-like protein 4, full length isoform A (SALL4, Homo sapiens, UniProt Q9UJQ4, residues 1-1053)
# UniProt Q9UJQ4, sequence (whole entry, looked up): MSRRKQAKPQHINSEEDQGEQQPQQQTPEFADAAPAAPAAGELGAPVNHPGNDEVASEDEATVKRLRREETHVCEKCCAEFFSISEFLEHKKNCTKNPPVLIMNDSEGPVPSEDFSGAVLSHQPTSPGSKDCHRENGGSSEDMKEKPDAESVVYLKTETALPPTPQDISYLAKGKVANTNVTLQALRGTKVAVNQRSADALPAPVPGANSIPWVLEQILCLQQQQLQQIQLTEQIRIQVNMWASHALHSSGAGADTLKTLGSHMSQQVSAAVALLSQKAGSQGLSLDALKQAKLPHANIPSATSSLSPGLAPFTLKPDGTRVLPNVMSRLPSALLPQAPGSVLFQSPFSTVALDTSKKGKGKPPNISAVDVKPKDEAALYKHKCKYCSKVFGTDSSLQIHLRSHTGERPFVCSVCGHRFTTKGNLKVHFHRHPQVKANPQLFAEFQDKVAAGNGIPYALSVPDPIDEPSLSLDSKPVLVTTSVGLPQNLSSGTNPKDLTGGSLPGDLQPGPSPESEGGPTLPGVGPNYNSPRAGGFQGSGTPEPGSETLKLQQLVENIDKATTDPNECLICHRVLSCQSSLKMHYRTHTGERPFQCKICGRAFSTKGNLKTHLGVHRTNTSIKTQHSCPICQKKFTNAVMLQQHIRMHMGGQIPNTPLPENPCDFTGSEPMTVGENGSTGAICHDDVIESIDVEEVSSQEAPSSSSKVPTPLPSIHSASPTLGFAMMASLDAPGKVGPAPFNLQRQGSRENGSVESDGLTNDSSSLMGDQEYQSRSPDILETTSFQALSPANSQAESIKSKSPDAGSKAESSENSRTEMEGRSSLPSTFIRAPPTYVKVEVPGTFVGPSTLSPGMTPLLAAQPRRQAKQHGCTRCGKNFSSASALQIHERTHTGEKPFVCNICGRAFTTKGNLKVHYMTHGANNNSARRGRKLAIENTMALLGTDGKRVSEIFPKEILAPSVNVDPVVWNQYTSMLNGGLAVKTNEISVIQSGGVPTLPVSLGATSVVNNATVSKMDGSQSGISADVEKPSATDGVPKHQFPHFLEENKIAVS
# Notes: 8-mer, flanks averaged, mean of replicates
Strand,E-score
AAAACTAA,0.266
AATCATCC,0.0324
TAGCAAAA,0.258

# Series 3 — method: protein-binding microarray; form: double-stranded DNA, one strand shown; medium: in vitro; tested at: 250 nM; notes: 60-bp whole probe; added: salmon DNA 0.4 mg/ml; relative to: random background probes; reading: higher = stronger binding
# Target: Interferon regulatory factor 7, full length, phosphomimetic (IRF7, Homo sapiens, UniProt Q92985, residues 1-503, S101K/S471D/S472D/S475D/S476D/S477D/S483D/S484D/S487D)
# UniProt Q92985, sequence (whole entry, unmodified, looked up): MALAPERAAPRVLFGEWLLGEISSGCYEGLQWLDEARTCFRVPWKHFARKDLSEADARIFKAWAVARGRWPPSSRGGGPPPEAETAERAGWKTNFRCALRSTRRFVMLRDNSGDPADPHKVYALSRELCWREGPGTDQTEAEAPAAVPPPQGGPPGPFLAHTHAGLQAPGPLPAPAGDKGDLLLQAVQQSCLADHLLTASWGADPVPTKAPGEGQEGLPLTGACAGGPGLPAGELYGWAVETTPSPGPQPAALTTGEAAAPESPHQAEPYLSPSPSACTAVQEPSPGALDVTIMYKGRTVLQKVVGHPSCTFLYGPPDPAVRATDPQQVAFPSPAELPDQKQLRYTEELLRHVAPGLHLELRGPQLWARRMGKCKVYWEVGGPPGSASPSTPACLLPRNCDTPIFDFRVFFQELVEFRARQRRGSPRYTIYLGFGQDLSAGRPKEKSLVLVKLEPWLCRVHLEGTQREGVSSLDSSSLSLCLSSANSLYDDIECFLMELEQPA
Strand,log fluorescence
GCCTAGCACATTAGAGGATAACTTACAGAGTGCTAGGTCTTGATTCGCTTGACGCTGCTG,-0.136 z-score
GCCTAGCACTTAGGTAGCCTTTTCCTTTAGTGCTAGGTCTTGATTCGCTTGACGCTGCTG,-0.241 z-score
GCCTAGCACGACGATCTCAGTCCCGAGACGTGCTAGGTCTTGATTCGCTTGACGCTGCTG,0.166 z-score

# Further values, each from its own experiment
Molecule,target,assay,test system,conditions,how to read,quantity,result
"PhoQ, residues 284 288 289 292 302 303 TLASMF","PhoP, residues 12 14 15 18 19 AQALL (Escherichia coli, UniProt P23836)","Sort-seq, item: YFP reporter",E. coli,"PhoQ-PhoP variant library, added: 10 µM Mg2+","relative to: high Mg2+ state, higher = stronger signaling",fold induction,4.89
